# Measured values from different studies.
# A part holds a random share of what one study measured. Positions count from the first letter of the parent shown.

# Study 1 — target: CCND1, cyclin fold, Cln2 fusion (human); method: yeast growth competition, sequencing; matrix: yeast; setting: weak parent motif; relative to: not given; direction: higher = stronger binding
# Starting sequence: GMNC docking peptide (human); KNAKRNLSSEFAN; partner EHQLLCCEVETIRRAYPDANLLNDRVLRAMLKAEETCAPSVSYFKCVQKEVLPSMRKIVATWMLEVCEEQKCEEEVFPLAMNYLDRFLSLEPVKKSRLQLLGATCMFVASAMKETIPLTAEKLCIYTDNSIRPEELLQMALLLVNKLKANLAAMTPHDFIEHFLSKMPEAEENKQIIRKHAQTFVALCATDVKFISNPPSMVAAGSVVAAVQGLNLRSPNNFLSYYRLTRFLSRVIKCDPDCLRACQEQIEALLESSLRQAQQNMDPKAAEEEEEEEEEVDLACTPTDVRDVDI
Substitution,normalised enrichment score
KNAKRNLSSECAN [F11C],0.12
KNAKRNLSSESAN [F11S],0.182
KNAKRNLSSEYAN [F11Y],0.07
KNAKPNLSSEFAN [R5P],-0.176

# Study 2 — method: aptamer microarray, sandwich; molecule type: DNA with 2'F-ANA; matrix: in vitro; tested at: 200 nM; together with: Cy3 exosite-II aptamer, 400 nM; direction: higher = stronger binding; strand: GGTTGGTGTGGTTGG
# Target: Prothrombin, mature alpha-thrombin (F2, Homo sapiens, UniProt P00734)
# Setting: whole 15-mer aptamer, many near background
Modification,mean fluorescence intensity [a.u.]
2'F-ANA at 3 6 7 11 12 14 15,611
2'F-ANA at 1 3 4 6 10 11 12,109
2'F-ANA at 1 2 3 5 8 9 10 11 12 13,49.7
2'F-ANA at 1 2 3 4 6 7 8 10 12 13 14 15,52
2'F-ANA at 4 6 8 9 12 13 14 15,85.1

# Study 3 — method: protein-binding microarray; molecule type: double-stranded DNA, one strand shown; matrix: in vitro; tested at: 2200 nM top; setting: 60-bp whole probe; together with: salmon DNA 0.4 mg/ml; relative to: random background probes; direction: higher = stronger binding; constant ends, left off below: GCCTAGCAC … GTCTTGATTCGCTTGACGCTGCTG
# Target: Interferon regulatory factor 7, full length, phosphomimetic (IRF7, Homo sapiens, UniProt Q92985, residues 1-503, S471D/S472D/S475D/S476D/S477D/S483D/S484D/S487D)
# Chain of UniProt Q92985 (whole entry, unmodified, looked up): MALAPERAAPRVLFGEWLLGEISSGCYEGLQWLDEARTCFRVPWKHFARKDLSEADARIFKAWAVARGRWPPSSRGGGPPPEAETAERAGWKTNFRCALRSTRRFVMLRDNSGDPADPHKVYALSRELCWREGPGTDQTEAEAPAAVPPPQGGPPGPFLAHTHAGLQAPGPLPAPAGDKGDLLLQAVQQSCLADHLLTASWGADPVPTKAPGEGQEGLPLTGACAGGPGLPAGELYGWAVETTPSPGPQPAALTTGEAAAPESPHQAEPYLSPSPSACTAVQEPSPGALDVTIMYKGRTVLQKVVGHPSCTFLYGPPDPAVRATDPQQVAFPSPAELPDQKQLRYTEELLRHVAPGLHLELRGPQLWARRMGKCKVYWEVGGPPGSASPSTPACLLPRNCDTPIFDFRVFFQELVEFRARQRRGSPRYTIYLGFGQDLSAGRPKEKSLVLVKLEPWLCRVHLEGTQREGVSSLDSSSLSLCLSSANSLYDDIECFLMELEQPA
Strand,fitted relative affinity [z-score]
GACGGTTTCGGACTGAGGACGTGCTAG,3.49
GACGAACTAAGTCTCGAGACGTGCTAG,-0.0368
GACGGTATCCTTCTCCTGGCGTGCTAG,0.846
TGCCCCCACACTCCTAGCACGTGCTAG,0.415
GACGGTTTGGACTTTCGGGACGTGCTA,3.12
TTAGGTATCGCACTGGGTTAGTGCTAG,0.448
GTAGGACTGGACTATCGGTTAGTGCTA,-0.44

# Other studies, line by line
Substance,target,assay,test system,setting,how to read,endpoint,result
"PhoQ, residues 284 288 289 292 302 303 SSLVEF","PhoP, residues 12 14 15 18 19 VHSCL (Escherichia coli, UniProt P23836)","Sort-seq, measured: YFP reporter",E. coli,"PhoQ-PhoP variant library, together with: 10 µM Mg2+","relative to: high Mg2+ state, higher = stronger signaling",fold induction,6.73

# Repeated from above (study 3):
Strand,fitted relative affinity [z-score]
GTAGGACTGGACTATCGGTTAGTGCTA,-0.44
TGCCCCCACACTCCTAGCACGTGCTAG,0.415
